Experimental data from different studies.
Parts stem from different laboratories: compare values within a part only. Positions count from the first letter of the parent shown.
UniProt Q13131, sequence (whole entry, looked up): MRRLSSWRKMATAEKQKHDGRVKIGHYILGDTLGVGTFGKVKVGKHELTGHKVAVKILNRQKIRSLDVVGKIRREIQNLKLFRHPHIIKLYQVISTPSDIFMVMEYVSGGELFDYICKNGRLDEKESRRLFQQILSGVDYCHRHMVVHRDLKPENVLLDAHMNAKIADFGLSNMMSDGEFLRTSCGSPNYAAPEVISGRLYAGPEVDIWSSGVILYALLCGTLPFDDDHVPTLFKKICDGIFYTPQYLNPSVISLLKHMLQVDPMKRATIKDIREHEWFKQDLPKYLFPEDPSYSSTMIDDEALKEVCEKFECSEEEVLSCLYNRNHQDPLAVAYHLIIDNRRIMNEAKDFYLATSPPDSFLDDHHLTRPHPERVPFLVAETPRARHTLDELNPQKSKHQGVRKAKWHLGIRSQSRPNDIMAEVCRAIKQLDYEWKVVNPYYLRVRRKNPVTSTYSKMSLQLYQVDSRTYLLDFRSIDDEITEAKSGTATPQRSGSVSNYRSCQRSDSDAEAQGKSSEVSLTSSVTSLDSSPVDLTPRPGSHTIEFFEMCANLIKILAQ
UniProt P48730, sequence (whole entry, looked up): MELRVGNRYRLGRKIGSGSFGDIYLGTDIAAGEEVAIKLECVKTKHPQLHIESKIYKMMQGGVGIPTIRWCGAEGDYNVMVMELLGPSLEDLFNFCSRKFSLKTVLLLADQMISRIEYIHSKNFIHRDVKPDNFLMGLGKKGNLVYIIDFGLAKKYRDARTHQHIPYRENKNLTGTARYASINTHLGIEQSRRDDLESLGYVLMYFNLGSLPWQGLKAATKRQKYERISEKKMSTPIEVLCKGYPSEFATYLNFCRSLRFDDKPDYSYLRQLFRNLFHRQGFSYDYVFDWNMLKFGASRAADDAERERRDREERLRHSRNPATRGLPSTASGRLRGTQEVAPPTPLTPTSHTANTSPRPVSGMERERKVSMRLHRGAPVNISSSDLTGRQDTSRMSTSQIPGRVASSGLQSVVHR
UniProt Q06418, sequence (whole entry, looked up): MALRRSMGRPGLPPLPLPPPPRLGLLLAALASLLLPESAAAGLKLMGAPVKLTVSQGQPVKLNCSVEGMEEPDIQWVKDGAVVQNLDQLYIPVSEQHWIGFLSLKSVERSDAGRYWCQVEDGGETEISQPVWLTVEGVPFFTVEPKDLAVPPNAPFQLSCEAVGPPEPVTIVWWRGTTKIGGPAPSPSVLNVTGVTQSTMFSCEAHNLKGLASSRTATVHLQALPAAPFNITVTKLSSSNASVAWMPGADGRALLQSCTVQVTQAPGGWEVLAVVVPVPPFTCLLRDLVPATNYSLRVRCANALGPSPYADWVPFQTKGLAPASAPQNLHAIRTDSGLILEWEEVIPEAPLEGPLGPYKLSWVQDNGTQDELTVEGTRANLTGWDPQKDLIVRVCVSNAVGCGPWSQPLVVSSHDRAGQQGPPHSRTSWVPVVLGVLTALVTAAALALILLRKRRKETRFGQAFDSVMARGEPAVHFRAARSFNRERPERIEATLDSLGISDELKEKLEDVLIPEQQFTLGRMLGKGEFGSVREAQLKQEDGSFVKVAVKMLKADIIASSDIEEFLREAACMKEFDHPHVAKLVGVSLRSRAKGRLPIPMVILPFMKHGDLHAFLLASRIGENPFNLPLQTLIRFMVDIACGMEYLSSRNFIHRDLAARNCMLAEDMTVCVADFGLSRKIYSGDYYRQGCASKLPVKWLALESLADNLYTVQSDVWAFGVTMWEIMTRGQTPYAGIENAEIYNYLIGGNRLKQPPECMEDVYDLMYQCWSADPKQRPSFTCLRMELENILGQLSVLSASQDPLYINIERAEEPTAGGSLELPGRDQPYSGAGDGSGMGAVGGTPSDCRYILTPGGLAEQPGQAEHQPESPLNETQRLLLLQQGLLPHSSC
UniProt P08069, sequence (whole entry, looked up): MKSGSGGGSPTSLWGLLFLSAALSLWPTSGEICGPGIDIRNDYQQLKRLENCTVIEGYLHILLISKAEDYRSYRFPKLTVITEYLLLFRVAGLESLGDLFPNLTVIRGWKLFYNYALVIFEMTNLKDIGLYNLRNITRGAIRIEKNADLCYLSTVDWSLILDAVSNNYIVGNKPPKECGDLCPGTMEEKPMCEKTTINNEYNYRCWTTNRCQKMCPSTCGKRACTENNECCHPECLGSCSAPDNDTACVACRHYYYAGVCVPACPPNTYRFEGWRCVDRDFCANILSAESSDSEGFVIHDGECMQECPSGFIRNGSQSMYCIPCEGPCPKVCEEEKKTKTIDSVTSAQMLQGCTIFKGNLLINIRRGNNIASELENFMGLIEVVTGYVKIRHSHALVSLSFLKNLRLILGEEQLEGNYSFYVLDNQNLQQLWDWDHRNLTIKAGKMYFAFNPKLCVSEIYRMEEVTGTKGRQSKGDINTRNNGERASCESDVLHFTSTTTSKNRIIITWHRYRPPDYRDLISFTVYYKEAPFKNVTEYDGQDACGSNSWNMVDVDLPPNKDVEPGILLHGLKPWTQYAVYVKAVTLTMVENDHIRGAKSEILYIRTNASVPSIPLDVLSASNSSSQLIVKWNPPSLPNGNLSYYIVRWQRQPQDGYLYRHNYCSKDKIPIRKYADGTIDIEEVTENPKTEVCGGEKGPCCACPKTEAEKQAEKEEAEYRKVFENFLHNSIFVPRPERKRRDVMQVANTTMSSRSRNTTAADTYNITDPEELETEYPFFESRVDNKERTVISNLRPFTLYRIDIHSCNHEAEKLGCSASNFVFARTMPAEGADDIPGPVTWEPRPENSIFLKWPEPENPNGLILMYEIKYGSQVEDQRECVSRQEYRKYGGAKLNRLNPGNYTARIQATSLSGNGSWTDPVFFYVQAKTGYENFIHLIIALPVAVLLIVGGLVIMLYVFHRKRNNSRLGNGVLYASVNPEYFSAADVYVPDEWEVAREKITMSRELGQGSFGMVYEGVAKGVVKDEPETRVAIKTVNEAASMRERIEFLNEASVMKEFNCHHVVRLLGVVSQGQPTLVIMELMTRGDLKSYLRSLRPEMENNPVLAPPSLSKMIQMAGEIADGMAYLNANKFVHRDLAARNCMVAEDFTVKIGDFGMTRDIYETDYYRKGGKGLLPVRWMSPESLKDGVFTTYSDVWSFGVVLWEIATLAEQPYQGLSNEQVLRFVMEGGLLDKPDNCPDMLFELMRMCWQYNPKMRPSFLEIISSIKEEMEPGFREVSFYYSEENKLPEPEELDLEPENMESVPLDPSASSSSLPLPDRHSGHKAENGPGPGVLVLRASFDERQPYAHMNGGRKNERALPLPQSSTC
UniProt P21709, sequence (whole entry, looked up): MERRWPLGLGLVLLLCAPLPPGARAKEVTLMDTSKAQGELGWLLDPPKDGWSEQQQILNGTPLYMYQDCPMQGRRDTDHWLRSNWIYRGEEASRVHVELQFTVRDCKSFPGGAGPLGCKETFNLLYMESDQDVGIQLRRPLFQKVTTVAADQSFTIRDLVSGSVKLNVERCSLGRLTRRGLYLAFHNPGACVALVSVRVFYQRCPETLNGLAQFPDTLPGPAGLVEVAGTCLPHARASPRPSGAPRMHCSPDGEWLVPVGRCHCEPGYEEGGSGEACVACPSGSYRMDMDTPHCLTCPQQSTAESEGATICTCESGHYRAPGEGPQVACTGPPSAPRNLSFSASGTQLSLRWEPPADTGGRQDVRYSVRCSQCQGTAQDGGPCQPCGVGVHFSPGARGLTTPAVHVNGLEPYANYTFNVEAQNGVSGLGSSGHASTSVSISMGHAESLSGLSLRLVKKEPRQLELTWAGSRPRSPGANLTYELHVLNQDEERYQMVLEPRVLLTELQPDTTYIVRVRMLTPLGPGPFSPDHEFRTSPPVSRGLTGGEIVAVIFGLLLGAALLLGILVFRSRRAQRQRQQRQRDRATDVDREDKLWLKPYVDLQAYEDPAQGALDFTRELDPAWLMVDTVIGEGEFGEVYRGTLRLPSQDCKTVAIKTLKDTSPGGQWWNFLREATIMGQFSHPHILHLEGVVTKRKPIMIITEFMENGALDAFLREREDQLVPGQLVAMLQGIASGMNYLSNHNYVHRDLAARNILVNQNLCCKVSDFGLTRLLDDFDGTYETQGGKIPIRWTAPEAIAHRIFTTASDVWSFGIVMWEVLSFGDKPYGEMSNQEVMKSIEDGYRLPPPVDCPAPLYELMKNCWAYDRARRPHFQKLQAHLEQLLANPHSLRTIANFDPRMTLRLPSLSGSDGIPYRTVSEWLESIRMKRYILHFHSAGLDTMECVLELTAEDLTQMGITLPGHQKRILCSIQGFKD

Series 1 — observed: enzyme activity; action: inhibitor; concentration: 0.5 µM; reference: control; measurement: remaining activity
Target: MAP/microtubule affinity-regulating kinase 4 (MARK4, Homo sapiens, UniProt Q96L34)
UniProt Q96L34, sequence (whole entry, looked up): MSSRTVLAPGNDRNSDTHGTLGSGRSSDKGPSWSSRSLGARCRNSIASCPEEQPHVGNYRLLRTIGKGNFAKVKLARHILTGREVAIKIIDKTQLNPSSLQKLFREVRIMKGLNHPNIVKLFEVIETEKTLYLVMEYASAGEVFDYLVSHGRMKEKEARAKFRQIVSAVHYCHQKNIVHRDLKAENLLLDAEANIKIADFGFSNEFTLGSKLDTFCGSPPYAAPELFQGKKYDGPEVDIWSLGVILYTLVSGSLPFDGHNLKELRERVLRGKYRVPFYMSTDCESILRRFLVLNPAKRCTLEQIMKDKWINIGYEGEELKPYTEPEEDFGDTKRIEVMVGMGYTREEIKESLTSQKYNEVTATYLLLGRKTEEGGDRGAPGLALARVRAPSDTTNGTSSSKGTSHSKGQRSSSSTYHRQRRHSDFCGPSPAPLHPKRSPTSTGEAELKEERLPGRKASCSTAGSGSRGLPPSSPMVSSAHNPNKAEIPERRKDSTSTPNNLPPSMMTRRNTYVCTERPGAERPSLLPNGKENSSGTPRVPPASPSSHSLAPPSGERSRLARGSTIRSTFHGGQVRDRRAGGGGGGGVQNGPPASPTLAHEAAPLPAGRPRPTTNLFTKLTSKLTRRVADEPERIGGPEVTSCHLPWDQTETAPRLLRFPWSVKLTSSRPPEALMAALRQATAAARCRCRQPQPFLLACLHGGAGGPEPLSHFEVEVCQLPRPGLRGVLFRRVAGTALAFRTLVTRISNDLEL
CO[C@H]1C[C@@H]2CC[C@@H](C)[C@@](O)(O2)C(=O)C(=O)N2CCCC[C@H]2C(=O)O[C@H]([C@H](C)C[C@@H]2CC[C@@H](O)[C@H](OC)C2)CC(=O)[C@H](C)/C=C(\C)[C@@H](O)[C@@H](OC)C(=O)[C@H](C)C[C@H](C)/C=C/C=C/C=C/1C: 99.1%
COc1ccc(OC)c2c(=S)c3ccccc3[nH]c12: 95.7%
O=S(=O)(c1cccc2cnccc12)N1CCCNCC1: 103%
COc1cc2nccc(Oc3ccc(NC(=S)NC(=O)c4ccccc4C)cc3)c2cc1OC: 73.3%
O=C1NC(=O)C(c2cn(CCCO)c3ncccc23)=C1c1cnccn1: 93.9%
COc1ccc(C(=O)Nc2sc3c(c2C(N)=O)CCCC3)cc1OC: 86.5%
CNC(=O)c1cc(Oc2ccc(NC(=O)Nc3ccc(Cl)c(C(F)(F)F)c3)cc2)ccn1: 98.1%
C#Cc1cccc(Nc2ncnc3cc(OCCOC)c(OCCOC)cc23)c1: 102%
O=C(O)c1ccc2c3c1cccc3c(=O)n1c3ccccc3nc21: 88.4%
Cc1nc(-c2ccccc2)c(-c2ccncc2)o1: 103%
Cc1ccc(NC(=O)c2ccc(CN3CCN(C)CC3)cc2)cc1Nc1nc(-c2cccnc2)cs1: 101%
Nc1ncnc2n[nH]c(Nc3ccc(F)cc3)c12: 99.4%
CN(C)c1ccc(C=C2C(=O)Nc3ccccc32)cc1: 97%
CCOC(=O)c1c(C)[nH]c(/C=C2\C(=O)Nc3ccccc32)c1C: 99.6%
N#CC(C#N)=C(N)/C(C#N)=C/c1ccc(O)cc1: 94.3%
OCC(O)CCON=C1C(c2c(O)[nH]c3ccccc23)=Nc2ccccc21 (stereo not drawn): 43.5%
Cc1cccc(-c2[nH]c(C(C)(C)C)nc2-c2ccc3c(c2)OCO3)n1: 99.7%
CC(C)[C@H](CO)Nc1nc(Nc2cc(N)cc(Cl)c2)c2ncn(C(C)C)c2n1: 71.2%
Oc1ccc(-c2nc(-c3ccncc3)c(-c3ccc(F)cc3)[nH]2)cc1: 100%
NCCNc1ncc(C(N)=O)c(Nc2cccc(C(F)(F)F)c2)n1: 87.5%
COc1cc2ncnc(Nc3ccc(Oc4ccccc4)cc3)c2cc1OC: 105%
Cn1c2ccccc2c2c3c(c4c5ccccc5n(CCC#N)c4c21)CNC3=O: 10.8%
O=C1NC(=O)C(c2cn(CCCn3ccnc3)c3ccccc23)=C1Nc1ccccc1: 92.6%
O=C(Nc1cccc(Nc2cc(Nc3cccc(C(F)(F)F)c3)ncn2)c1)C1CC1: 101%
Nc1[nH]nc2nc3ccccc3nc12: 99.8%

Series 2 — target: FOSL1, bZIP domain (human); technique: DHFR protein complementation; medium: yeast; reference: wild-type JUN-FOS pair; direction: higher = stronger binding; measurement: binding fitness
Setting: single substitutions, most at no-binding floor
Starting sequence: JUN, bZIP domain (human); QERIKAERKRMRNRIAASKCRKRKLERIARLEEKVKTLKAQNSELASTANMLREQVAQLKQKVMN; partner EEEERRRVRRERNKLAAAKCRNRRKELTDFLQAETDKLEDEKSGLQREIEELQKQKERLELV
L59Q: -1.36 natural log
Q55P: -1.52 natural log
I28N: -0.747 natural log
L59T: -1.39 natural log
V56K: -1.41 natural log
R53S: -1.16 natural log
A46M: -0.42 natural log
L38N: -1.36 natural log

Series 3 — technique: competition protein-binding microarray; molecule type: double-stranded DNA, one strand shown; medium: in vitro; concentration: 2 µM; with: Cbf1 competitor, 0.05 µM; direction: higher = stronger binding; measurement: fluorescence intensity; all sequences stand within: … GTCTTGATTCGCTTGACGCTGCTG
Target: Phosphate system positive regulatory protein PHO4, full length, GST-tagged (PHO4, Saccharomyces cerevisiae, UniProt P07270, residues 1-312)
Setting: whole 60-bp probe, lowest competitor level
Residues (chain): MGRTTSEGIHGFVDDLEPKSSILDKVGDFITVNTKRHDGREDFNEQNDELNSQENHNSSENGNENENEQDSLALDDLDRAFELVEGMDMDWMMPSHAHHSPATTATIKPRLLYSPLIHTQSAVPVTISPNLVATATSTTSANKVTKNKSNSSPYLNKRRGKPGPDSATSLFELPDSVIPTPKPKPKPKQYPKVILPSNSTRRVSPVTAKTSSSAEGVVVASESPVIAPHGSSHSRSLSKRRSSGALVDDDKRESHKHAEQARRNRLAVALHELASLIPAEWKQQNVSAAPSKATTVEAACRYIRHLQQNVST
ATTTCGATGTACATCCTCGTGATGGTAAATATGGCC: 8710 a.u.
GTCTTGTCTCATTGCCGGGTGGGTGTCCCCACTTCA: 5420 a.u.
TGACGATTGCTCTTTCCCGTGCTTTATCGAGTAACC: 7270 a.u.
CTTCTGTAAATTTGGAGCGTGGGTGGACGCGCCCCG: 7730 a.u.
AGACCAGATGGTCTTCACGTTATCAATGTTGGTAAG: 5960 a.u.
AAAGCGGTAATTTGGAACGTGGGTGCAGATATCTAT: 14000 a.u.
TTGGGGTTTATATCGCACGCTTATATTTGGGCCAGC: 6860 a.u.
CAATTTACATGTTCCAACGTGACTCGAGAAAGCATG: 11400 a.u.

Series 4 — technique: protein binding microarray; molecule type: double-stranded DNA, one strand shown; medium: in vitro; concentration: not given; reference: not given; direction: higher = stronger binding; measurement: E-score
Target: Histone acetyltransferase KAT6A, winged helix 1, GST fusion (KAT6A, Homo sapiens, UniProt Q92794, residues 1-85)
Setting: 8-mer, flanks averaged, mean of 2 arrays, mostly near background
Residues (chain): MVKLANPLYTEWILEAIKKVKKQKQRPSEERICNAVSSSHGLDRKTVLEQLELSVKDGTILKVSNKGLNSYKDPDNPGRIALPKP
GCAGGTAA: 0.0825
CTCCTGTC: -0.251
AACTAGAC: -0.0732
CAAGTGTC: -0.116
GGGCGGTA: 0.33
CACCCAAA: -0.255
ACCGTTGA: -0.0113
GCCGATTA: 0.126

Series 5 — observed: cell-free assay; technique: competition with immobilised ligand; concentration: 1 µM; measurement: remaining binding
SMILES: O=C(O)[C@H]1[C@H](Cn2nnc3ccccc3c2=O)CC[C@@H]1C(=O)c1ccc(OCCC2CCOCC2)cc1
TYRO3 (Homo sapiens, UniProt Q06418): 100%
EPHA1 (Homo sapiens, UniProt P21709): 100%
PRKAA1 (Homo sapiens, UniProt Q13131): 100%
CSNK1D (Homo sapiens, UniProt P48730): 100%
IGF1R (Homo sapiens, UniProt P08069): 100%

Some of these lines once more (series 3):
GTCTTGTCTCATTGCCGGGTGGGTGTCCCCACTTCA: 5420 a.u.
CAATTTACATGTTCCAACGTGACTCGAGAAAGCATG: 11400 a.u.
ATTTCGATGTACATCCTCGTGATGGTAAATATGGCC: 8710 a.u.
AAAGCGGTAATTTGGAACGTGGGTGCAGATATCTAT: 14000 a.u.
CTTCTGTAAATTTGGAGCGTGGGTGGACGCGCCCCG: 7730 a.u.
